Measured values gathered from unrelated publications.
Each line is one published result; not all experiments were run side by side. ± marks the error that the study gave.
ACHE: Acetylcholinesterase (ACHE, Homo sapiens, UniProt P22303)
UniProt P22303, sequence (whole entry, looked up): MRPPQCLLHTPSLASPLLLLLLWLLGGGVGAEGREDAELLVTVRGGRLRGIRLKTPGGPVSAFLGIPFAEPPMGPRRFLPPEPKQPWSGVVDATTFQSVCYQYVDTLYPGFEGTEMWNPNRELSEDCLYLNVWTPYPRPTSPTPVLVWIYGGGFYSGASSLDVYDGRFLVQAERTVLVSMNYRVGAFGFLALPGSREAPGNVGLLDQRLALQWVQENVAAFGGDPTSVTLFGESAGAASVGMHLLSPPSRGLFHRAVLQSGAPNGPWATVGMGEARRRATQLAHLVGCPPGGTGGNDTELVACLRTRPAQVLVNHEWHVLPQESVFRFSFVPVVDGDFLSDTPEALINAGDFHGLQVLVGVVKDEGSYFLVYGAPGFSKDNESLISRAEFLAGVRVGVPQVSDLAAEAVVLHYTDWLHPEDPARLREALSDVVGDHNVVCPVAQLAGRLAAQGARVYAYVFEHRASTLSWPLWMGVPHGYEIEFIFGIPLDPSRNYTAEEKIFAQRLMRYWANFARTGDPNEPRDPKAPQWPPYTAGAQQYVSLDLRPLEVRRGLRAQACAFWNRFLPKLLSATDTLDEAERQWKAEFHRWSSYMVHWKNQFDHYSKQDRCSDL
UniProt Q9H1C0, sequence (whole entry, looked up): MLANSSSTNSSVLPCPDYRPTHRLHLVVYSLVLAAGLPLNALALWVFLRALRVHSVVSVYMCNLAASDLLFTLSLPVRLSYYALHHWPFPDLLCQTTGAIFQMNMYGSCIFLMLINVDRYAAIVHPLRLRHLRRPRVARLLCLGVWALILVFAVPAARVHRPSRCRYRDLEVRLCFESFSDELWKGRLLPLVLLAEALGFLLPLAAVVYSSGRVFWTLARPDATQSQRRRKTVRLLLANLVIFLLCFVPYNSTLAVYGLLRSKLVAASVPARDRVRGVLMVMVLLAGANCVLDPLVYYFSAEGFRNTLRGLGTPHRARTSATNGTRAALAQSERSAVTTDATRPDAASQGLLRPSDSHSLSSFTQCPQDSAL
UniProt P35348, sequence (whole entry, looked up): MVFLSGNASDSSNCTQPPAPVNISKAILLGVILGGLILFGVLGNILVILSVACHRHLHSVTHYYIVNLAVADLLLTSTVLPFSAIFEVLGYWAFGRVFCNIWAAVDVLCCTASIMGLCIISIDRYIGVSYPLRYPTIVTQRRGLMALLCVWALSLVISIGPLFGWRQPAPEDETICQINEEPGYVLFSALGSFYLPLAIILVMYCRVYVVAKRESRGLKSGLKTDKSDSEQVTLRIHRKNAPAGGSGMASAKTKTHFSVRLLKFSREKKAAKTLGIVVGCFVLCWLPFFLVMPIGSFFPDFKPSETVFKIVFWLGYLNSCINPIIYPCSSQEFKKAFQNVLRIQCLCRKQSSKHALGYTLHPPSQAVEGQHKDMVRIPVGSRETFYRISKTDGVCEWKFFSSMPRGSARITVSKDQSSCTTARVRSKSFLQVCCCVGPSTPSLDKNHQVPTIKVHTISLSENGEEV
UniProt P51617, sequence (whole entry, looked up): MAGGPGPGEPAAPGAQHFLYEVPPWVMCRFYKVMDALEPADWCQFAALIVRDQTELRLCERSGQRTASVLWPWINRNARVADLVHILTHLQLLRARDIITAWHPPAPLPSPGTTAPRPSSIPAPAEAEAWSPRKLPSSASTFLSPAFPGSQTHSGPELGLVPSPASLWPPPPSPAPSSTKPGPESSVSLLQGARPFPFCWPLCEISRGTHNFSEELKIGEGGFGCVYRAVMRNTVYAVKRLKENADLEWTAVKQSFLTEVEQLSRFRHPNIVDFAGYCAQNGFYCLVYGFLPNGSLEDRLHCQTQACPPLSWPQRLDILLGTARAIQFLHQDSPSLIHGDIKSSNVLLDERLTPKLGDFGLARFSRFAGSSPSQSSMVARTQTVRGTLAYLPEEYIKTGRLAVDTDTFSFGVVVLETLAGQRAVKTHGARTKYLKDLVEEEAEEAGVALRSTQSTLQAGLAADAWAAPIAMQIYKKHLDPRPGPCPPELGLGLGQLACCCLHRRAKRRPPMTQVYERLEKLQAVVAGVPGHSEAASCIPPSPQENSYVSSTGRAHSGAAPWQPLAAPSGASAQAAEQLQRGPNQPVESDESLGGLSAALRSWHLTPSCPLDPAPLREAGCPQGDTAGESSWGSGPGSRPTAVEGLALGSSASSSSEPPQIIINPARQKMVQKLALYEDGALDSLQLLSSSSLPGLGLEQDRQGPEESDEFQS
UniProt Q53H76, sequence (whole entry, looked up): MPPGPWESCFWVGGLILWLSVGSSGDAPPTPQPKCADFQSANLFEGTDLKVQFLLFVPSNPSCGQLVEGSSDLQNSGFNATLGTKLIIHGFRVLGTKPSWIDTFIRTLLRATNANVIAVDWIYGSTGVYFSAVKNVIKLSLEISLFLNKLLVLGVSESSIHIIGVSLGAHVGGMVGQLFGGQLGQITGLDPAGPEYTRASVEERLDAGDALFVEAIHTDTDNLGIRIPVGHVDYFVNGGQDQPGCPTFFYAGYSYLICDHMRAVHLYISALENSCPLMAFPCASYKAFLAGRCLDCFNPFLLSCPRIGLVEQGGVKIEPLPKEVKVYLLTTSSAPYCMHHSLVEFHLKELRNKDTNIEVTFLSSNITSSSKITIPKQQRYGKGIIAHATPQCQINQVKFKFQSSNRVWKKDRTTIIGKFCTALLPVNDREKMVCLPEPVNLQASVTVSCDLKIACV
UniProt P29597, sequence (whole entry, looked up): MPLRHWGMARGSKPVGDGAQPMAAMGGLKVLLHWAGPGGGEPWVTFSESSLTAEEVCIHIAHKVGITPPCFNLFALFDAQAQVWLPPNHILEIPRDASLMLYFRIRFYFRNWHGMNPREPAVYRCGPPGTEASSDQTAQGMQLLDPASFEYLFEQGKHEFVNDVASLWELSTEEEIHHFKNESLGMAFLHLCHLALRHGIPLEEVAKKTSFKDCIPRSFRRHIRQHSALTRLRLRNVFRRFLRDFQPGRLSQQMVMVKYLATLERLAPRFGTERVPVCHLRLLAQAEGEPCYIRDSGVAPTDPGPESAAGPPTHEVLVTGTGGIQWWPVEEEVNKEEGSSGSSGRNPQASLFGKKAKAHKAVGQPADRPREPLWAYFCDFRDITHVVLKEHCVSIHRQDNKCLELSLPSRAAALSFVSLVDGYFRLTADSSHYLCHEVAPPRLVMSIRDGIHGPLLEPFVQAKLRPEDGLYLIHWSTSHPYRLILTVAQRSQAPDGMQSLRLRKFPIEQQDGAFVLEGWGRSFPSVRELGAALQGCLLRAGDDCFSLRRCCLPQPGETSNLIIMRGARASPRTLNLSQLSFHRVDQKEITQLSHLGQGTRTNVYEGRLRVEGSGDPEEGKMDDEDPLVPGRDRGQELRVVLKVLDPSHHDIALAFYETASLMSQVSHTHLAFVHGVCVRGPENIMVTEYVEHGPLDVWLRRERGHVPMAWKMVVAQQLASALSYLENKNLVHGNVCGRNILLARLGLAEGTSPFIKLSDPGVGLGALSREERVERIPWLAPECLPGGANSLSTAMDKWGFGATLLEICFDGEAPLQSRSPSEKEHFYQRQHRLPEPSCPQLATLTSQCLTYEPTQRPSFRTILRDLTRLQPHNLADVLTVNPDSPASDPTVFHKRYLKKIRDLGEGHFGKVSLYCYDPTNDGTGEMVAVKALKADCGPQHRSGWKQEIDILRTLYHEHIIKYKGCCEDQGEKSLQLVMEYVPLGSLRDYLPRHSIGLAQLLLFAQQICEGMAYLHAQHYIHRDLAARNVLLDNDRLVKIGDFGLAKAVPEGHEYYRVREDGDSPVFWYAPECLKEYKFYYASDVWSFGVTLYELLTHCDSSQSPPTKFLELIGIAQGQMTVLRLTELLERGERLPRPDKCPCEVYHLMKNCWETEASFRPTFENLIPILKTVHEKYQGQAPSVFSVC

SMILES	target or system	assay	system	conditions	how to read	measurement	value
C[C@@H](N[C@H]1CCCC[C@@H]1NC(=O)c1ccc(Cl)cc1)c1cccc2ccccc12.Cl	ACHE	enzyme activity, inhibitor	–	–	–	IC50	inactive
[2H]c1c([2H])c([C@]2([2H])CCCN2C(=O)C(C)(C)Oc2ccc3cn[nH]c3c2)c([2H])c([2H])c1C([2H])([2H])[2H]	Myosin-IIIb (MYO3B, Homo sapiens, UniProt Q8WXR4)	KINOMEscan	–	1 µM	relative to: DMSO control	remaining binding	98%
CCCn1ncc(CN2CCCC(C(=O)c3cccc(OC)c3)C2)c1C (stereo not drawn)	Trypanosoma cruzi	reporter translation, Renilla luciferase mRNA translation	cell-free extract	40 µM	relative to: DMSO	inhibition	-8.2%
CCOC(=O)C1(CCOc2ccccc2)CCN(Cc2ccc(O)c(Cl)c2)CC1	ACHE	enzyme activity, inhibitor	–	–	–	IC50	inactive
CN1CCN(c2cc(-c3ccncc3)c(-c3ccc4ccccc4c3)nn2)CC1	Alpha-1A adrenergic receptor (ADRA1A, Homo sapiens, UniProt P35348)	antagonist, FLIPR	–	10 µM	–	inhibition	-1.7%
O=C(c1ccc(Cl)cc1)N1CCN2C(=O)N(OC(=O)N3CCOc4ccccc43)C(=O)C2C1 (stereo not drawn)	Phospholipase A1 member A (PLA1A, Homo sapiens, UniProt Q53H76)	MS-based ABPP	SW-620 conditioned medium	10 µM, 1 h, 37 °C	relative to: compound over DMSO, lower = more inhibition	median protein ratio	1.03
CN1CC[C@]23c4c5ccc(O)c4O[C@H]2[C@@H](O)C=C[C@H]3[C@H]1C5	–	G-protein activation, agonist	mouse brain homogenate	–	–	EC50	157 ± 18 nM
CC[C@H](C)[C@H](NC(=O)CNC(=O)[C@@H](N)CCCCN)C(=O)N[C@@H](CC(C)C)C(=O)N[C@@H](CCCCN)C(=O)N[C@@H](CCCNC(=N)N)C(=O)N[C@@H](CCC(=O)O)C(=O)N[C@@H](CCCCN)C(=O)N[C@@H](CCCNC(=N)N)C(=O)N[C@@H](CC(C)C)C(=O)N[C@@H](CCCNC(=N)N)C(=O)N[C@@H](CCCNC(=N)N)C(=O)N[C@@H](CCCCN)C(=O)N[C@@H](CC(N)=O)C(=O)N[C@H](C(=O)N[C@@H](Cc1c[nH]cn1)C(=O)N[C@@H](Cc1c[nH]c2ccccc12)C(=O)N1CCC[C@H]1C(=O)N[C@@H](CCC(=O)O)C(=O)N[C@@H](CCC(=O)O)C(=O)NCC(=O)N[C@@H](CCCCN)C(=O)N[C@@H](CC(C)C)C(=O)N[C@@H](CCCNC(=N)N)C(=O)N[C@@H](CCC(=O)O)C(=O)N[C@@H](Cc1ccc(O)cc1)C(=O)N[C@@H](Cc1ccccc1)C(=O)N[C@@H](Cc1ccc(O)cc1)C(=O)N[C@@H](Cc1ccccc1)C(=O)N[C@@H](CCC(=O)O)C(=O)N[C@@H](CC(C)C)C(=O)N[C@@H](CC(=O)O)C(=O)N[C@@H](CCC(=O)O)C(=O)N[C@@H](C)C(=O)N[C@@H](CCC(=O)O)C(=O)N[C@@H](CCCNC(=N)N)C(=O)N[C@H](C(=O)N[C@@H](CC(N)=O)C(=O)N[C@H](C(=O)O)C(C)C)C(C)C)C(C)C	HeLa and HEK-293T cells	phosphatase bead binding, competitive inhibitor, PIB pulldown iBAQ LC-MS/MS, item: FECH	–	concentration not given	relative to: untreated control	log2 fold change	0.45
COc1ccc(N2C(=O)N(c3c(C)cccc3Cl)Cc3cnc(Nc4ccc(C5CCN(C)CC5)cc4OC)nc32)nc1	Non-receptor tyrosine-protein kinase TYK2 (TYK2, Homo sapiens, UniProt P29597)	kinase activity	–	0.5 µM	–	inhibition	8%
Oc1ccc2c3c1O[C@H]1[C@@H](O)CC[C@@]4(O)[C@@H](C2)N(CC2CCC2)CC[C@]314	Lysophosphatidic acid receptor 5 (LPAR5, Homo sapiens, UniProt Q9H1C0)	β-arrestin recruitment, TANGO luminescence, item: GPR92	–	concentration not given	relative to: basal luminescence	log2 fold change	0.284
Cl.Cl.Clc1ccccc1CNCC1CCC(CNCc2ccccc2Cl)CC1 (stereo not drawn)	ACHE	enzyme activity, inhibitor	–	–	–	IC50	inactive
C[C@H]1CN(c2n[nH]c3nc(N[C@H]4CC[C@H](NS(=O)(=O)CCC(F)(F)F)CC4)ncc23)CCO1	Interleukin-1 receptor-associated kinase 1 (IRAK1, Homo sapiens, UniProt P51617)	inhibitor, Kinobeads competition profiling	–	0.8 µM	relative to: vehicle	relative abundance	1.11
O=C(NCCN1CCC2(CC1)C(=O)NCN2c1cccc(F)c1)c1ccc(F)c(F)c1	ACHE	enzyme activity, inhibitor	–	–	–	IC50	inactive
O=S(=O)([O-])C(F)(F)C(F)(F)C(F)(F)C(F)(F)C(F)(F)C(F)(F)C(F)(F)C(F)(F)F.[K+]	–	RT-qPCR, item: Car	mouse, ethanol-fed, liver	dose not given	relative to: efavirenz	mRNA level	increased
CC(C)(C)C1CCN(C(=O)n2ncc(C(O)(c3ccccc3)c3ccccc3)n2)CC1	ACHE	enzyme activity, inhibitor	–	–	–	IC50	inactive
CCCC1COC(Cn2cncn2)(c2ccc(Cl)cc2Cl)O1 (stereo not drawn)	Trypanosoma cruzi	reporter translation, Renilla luciferase mRNA translation	cell-free extract	40 µM	relative to: DMSO	inhibition	2.4%
CC[C@H](C)[C@H](NC(=O)CNC(=O)[C@@H](N)CCCCN)C(=O)N[C@@H](CC(C)C)C(=O)N[C@@H](CCCCN)C(=O)N[C@@H](CCCNC(=N)N)C(=O)N[C@@H](CCC(=O)O)C(=O)N[C@@H](CCCCN)C(=O)N[C@@H](CCCNC(=N)N)C(=O)N[C@@H](CC(C)C)C(=O)N[C@@H](CCCNC(=N)N)C(=O)N[C@@H](CCCNC(=N)N)C(=O)N[C@@H](CCCCN)C(=O)N[C@@H](CC(N)=O)C(=O)N[C@H](C(=O)N[C@@H](Cc1c[nH]cn1)C(=O)N[C@@H](Cc1c[nH]c2ccccc12)C(=O)N1CCC[C@H]1C(=O)N[C@@H](CCC(=O)O)C(=O)N[C@@H](CCC(=O)O)C(=O)NCC(=O)N[C@@H](CCCCN)C(=O)N[C@@H](CC(C)C)C(=O)N[C@@H](CCCNC(=N)N)C(=O)N[C@@H](CCC(=O)O)C(=O)N[C@@H](Cc1ccccc1)C(=O)N[C@@H](Cc1ccccc1)C(=O)N[C@@H](Cc1ccccc1)C(=O)N[C@@H](Cc1ccccc1)C(=O)N[C@@H](CCC(=O)O)C(=O)N[C@@H](CC(C)C)C(=O)N[C@@H](CC(=O)O)C(=O)N[C@@H](CCC(=O)O)C(=O)N[C@@H](C)C(=O)N[C@@H](CCC(=O)O)C(=O)N[C@@H](CCCNC(=N)N)C(=O)N[C@H](C(=O)N[C@@H](CC(N)=O)C(=O)N[C@H](C(=O)O)C(C)C)C(C)C)C(C)C	HeLa and HEK-293T cells	phosphatase bead binding, competitive inhibitor, PIB pulldown iBAQ LC-MS/MS, item: FGFR1OP2	–	concentration not given	relative to: untreated control	log2 fold change	0.0224
Br.CN1CCC[C@@H]1Cc1c[nH]c2ccc(CCS(=O)(=O)c3ccccc3)cc12	ACHE	enzyme activity, inhibitor	–	–	–	IC50	inactive

Repeated from above:
SMILES	target or system	assay	system	conditions	how to read	measurement	value
Cl.Cl.Clc1ccccc1CNCC1CCC(CNCc2ccccc2Cl)CC1 (stereo not drawn)	ACHE	enzyme activity, inhibitor	–	–	–	IC50	inactive
